Assay results from different studies.
Numbers after ± are the reported error.
FURIN: Furin (FURIN, Homo sapiens, UniProt P09958)
PTPN1: Tyrosine-protein phosphatase non-receptor type 1 (PTPN1, Homo sapiens, UniProt P18031)
HLA class I histocompatibility antigen, A alpha chain allele A*26:03: HLA class I histocompatibility antigen, A alpha chain, allele A*26:03 (Homo sapiens, UniProt P04439)

The chains behind the UniProt entries cited, without tags or fusion partners. Residues count along the entry.
UniProt P09958, whole entry, looked up: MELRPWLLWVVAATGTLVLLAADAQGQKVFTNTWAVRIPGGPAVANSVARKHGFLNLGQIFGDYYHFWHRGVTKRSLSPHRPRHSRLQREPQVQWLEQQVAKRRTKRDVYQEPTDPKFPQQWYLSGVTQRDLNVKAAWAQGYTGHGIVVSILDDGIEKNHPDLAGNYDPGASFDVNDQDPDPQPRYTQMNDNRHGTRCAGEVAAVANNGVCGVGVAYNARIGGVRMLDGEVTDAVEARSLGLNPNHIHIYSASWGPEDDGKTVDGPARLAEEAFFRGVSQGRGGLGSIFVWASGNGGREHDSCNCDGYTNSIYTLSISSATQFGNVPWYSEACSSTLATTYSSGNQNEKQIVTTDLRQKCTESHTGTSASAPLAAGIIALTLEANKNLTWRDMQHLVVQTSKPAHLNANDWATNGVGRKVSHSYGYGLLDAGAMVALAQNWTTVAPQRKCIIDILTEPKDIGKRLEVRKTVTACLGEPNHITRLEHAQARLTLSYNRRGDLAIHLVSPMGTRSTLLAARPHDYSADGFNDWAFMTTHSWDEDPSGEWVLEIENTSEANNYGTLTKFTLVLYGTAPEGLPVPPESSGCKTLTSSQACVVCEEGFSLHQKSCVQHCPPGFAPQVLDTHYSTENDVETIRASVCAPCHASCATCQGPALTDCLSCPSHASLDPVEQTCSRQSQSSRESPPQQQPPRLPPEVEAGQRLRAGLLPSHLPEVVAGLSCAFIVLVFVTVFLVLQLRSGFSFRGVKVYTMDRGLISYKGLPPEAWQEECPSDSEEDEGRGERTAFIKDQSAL
UniProt P18031, 1-321 limits assumed: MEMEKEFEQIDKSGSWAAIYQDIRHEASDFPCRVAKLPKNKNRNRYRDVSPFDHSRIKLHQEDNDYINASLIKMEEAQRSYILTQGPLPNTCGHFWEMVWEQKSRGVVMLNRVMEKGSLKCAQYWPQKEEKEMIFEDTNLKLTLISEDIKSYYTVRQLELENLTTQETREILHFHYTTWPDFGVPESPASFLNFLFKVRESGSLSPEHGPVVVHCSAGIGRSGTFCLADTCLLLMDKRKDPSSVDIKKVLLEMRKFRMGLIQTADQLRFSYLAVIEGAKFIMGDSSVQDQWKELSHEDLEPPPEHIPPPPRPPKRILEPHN
UniProt P18031, whole entry: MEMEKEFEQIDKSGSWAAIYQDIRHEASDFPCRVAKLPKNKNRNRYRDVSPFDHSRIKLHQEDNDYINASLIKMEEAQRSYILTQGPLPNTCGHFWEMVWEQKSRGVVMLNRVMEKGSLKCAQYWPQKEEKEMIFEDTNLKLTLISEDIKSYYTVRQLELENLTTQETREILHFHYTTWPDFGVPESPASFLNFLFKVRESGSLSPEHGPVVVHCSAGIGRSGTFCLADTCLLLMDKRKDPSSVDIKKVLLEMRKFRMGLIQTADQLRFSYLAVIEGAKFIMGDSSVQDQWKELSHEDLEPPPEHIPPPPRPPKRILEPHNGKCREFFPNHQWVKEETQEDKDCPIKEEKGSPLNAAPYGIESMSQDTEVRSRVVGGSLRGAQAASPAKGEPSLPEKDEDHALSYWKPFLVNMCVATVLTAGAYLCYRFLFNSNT
UniProt P37136, 32-574 limits assumed: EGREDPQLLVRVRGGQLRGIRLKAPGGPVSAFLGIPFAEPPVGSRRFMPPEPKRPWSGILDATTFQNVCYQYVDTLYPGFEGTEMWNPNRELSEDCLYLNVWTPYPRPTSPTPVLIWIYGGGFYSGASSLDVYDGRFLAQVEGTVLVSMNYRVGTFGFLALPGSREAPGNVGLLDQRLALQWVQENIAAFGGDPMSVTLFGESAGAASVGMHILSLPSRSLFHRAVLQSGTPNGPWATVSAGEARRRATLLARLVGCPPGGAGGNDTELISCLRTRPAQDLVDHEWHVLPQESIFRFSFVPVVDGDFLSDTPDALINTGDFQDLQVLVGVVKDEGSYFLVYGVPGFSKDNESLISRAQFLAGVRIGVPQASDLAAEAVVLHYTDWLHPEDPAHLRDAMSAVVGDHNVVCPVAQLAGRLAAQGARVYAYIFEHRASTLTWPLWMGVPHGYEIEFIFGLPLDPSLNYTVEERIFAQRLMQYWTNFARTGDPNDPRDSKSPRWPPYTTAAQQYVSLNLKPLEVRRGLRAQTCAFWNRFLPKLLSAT
UniProt P09483, 31-630 limits assumed: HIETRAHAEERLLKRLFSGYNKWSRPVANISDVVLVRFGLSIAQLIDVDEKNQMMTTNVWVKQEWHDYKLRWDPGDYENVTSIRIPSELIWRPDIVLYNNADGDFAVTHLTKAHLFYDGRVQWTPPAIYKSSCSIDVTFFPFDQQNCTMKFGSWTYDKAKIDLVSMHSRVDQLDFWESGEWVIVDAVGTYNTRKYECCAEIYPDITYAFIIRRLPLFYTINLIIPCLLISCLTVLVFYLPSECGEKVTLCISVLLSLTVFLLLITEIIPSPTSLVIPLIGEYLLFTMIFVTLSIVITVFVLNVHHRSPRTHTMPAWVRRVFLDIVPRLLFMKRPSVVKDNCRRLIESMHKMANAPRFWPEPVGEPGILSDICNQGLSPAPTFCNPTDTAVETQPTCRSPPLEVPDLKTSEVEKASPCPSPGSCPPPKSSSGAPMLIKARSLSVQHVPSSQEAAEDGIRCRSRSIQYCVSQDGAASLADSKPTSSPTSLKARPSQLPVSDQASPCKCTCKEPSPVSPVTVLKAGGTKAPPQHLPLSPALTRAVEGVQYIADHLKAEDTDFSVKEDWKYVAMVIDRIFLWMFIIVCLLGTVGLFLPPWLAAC
UniProt P12392, 21-495 limits assumed: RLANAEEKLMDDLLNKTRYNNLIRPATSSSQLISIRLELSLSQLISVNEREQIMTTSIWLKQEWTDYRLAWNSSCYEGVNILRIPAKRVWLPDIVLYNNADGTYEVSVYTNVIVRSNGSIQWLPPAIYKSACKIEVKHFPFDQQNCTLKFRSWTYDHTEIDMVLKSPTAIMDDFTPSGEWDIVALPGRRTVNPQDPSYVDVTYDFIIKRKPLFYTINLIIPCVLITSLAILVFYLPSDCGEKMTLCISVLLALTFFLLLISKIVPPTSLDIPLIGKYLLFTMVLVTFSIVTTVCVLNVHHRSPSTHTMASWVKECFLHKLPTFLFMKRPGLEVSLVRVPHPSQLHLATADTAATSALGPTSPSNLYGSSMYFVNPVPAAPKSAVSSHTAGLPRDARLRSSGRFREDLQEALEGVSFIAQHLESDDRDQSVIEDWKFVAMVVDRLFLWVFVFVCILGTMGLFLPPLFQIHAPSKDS
UniProt P46098, 24-478 limits assumed: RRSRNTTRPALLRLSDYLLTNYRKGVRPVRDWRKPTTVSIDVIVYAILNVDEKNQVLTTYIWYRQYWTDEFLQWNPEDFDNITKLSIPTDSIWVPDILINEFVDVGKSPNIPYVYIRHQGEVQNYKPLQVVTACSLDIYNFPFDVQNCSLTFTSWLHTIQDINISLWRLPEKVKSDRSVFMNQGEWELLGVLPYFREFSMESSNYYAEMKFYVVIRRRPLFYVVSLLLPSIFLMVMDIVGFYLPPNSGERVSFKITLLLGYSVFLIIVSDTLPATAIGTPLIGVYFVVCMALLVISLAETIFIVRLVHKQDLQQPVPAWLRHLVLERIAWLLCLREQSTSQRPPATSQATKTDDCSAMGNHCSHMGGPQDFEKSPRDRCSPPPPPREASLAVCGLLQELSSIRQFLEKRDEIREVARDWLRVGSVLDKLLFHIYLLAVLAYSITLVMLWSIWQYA
UniProt Q66478, 863-1012 limits assumed: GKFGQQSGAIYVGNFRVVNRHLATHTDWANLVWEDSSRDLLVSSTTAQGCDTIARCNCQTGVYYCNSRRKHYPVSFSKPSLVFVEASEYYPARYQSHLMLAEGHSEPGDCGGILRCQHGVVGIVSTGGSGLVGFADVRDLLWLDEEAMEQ
UniProt Q2FXS9, whole entry: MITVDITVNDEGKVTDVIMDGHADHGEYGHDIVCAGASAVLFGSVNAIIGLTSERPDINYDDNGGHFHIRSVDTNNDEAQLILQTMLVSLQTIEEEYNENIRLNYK
UniProt P42574, whole entry, looked up: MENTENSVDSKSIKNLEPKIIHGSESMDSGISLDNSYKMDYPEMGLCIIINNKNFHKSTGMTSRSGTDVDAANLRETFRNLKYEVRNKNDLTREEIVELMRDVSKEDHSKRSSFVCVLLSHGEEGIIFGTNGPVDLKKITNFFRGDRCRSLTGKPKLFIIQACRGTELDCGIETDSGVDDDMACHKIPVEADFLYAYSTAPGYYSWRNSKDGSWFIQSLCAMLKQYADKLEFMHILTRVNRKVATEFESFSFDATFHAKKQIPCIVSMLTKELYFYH
UniProt Q585F3, whole entry, looked up: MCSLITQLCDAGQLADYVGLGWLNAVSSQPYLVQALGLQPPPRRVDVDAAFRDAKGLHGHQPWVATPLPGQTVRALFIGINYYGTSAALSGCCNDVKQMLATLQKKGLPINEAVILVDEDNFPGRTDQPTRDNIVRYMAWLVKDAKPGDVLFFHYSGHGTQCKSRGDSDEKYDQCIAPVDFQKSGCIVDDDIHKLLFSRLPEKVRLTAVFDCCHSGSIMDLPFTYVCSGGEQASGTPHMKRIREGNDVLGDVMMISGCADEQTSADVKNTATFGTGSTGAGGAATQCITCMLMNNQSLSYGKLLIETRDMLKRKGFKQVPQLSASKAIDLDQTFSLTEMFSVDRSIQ
UniProt P55210, whole entry, looked up: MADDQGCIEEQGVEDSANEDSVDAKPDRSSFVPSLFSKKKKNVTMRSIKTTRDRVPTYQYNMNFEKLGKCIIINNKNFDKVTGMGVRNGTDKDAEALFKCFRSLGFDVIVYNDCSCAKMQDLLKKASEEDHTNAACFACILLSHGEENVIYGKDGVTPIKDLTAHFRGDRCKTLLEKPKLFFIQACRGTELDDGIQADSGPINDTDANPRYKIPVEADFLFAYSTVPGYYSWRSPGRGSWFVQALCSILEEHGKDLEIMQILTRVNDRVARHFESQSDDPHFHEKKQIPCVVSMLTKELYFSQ

For `COP(=O)(OC)Oc1ccc([N+](=O)[O-])cc1Cl`, the IC50 was 0.067 µM (Acetylcholinesterase (Ache, Rattus norvegicus, UniProt P37136); enzyme activity, inhibitor, discontinuous Ellman; rat, postnatal day 1, rat heart homogenate; 15 min, 37 °C).
The z-score of `CC(C)C[C@H](NC(=O)[C@@H]1CCCN1C(=O)[C@H](C)NC(=O)[C@H](C)NC(=O)[C@H](C)NC(=O)[C@@H](N)CC(=O)O)C(=O)N1CCC[C@H]1C(=O)N1CCC[C@H]1C(=O)N[C@H](C(=O)O)C(C)C` is reported as -4.33 (HLA class I histocompatibility antigen, A alpha chain, allele A*69:01 (Homo sapiens, UniProt P04439); direction not given).
For `CC[C@H](C)[C@H](NC(=O)[C@H](CCCNC(=N)N)NC(=O)[C@@H](NC(=O)[C@H](Cc1c[nH]cn1)NC(=O)c1ccccc1N)C(C)C)C(=O)N[C@@H](CO)C(=O)N[C@@H](CCCNC(=N)N)C(=O)N[C@@H](CO)C(=O)N[C@@H](CC(C)C)C(=O)N[C@@H](Cc1c[nH]cn1)C(=O)N[C@@H](CCC(N)=O)C(=O)N[C@@H](CCC(N)=O)C(=O)NCCNc1ccc([N+](=O)[O-])cc1[N+](=O)[O-]`, the kcat was 3 s⁻¹ (FURIN; substrate; pH 7).
The z-score of `CSCC[C@H](NC(=O)[C@H](CCC(N)=O)NC(=O)[C@H](CC(C)C)NC(=O)[C@H](Cc1ccc(O)cc1)NC(=O)[C@@H](N)CC(C)C)C(=O)N[C@@H](CC(N)=O)C(=O)N[C@@H](CO)C(=O)N[C@@H](CC(C)C)C(=O)O` is reported as 0.151 (HLA class I histocompatibility antigen, A alpha chain, allele A*26:01 (Homo sapiens, UniProt P04439); direction not given).
The kcat/Km of `CC(C)C[C@H](NC(=O)[C@H](CC(N)=O)NC(=O)[C@@H](N)CC(=O)O)C(=O)N[C@@H](Cc1ccc(O)cc1)C(=O)N[C@@H](Cc1ccc(OP(=O)(O)O)cc1)C(=O)N[C@@H](Cc1c[nH]c2ccccc12)C(=O)N[C@@H](CC(=O)O)C(N)=O` is reported as 5.5e+06 M⁻¹ s⁻¹ (PTPN1; enzyme activity, substrate; pH 7.4).
`CC[C@H](C)[C@H](NC(=O)[C@H](CC(=O)O)NC(=O)[C@H](CC(=O)O)NC(=O)[C@H](Cc1ccc(OP(=O)(O)O)cc1)NC(=O)[C@H](C)NC(=O)[C@H](C)NC(C)=O)C(=O)N[C@@H](CC(=O)O)C(=O)N[C@@H](CCC(=O)O)C(N)=O` gave a kcat of 37 ± 2 s⁻¹ (PTPN1; substrate; pH 7.4, catalytic domain).
The IC50 of `CC[C@H](C)[C@@H]1NC(=O)[C@H](CCC(=O)O)NC(=O)[C@@H]2CCCN2C(=O)[C@H](Cc2c[nH]cn2)NC(=O)[C@H](CCCNC(=N)N)NC(=O)[C@H](C(C)C)NC(=O)[C@H](CC(N)=O)NC(=O)[C@@H]2CSSC[C@H](NC(=O)CN)C(=O)N[C@@H](CSSC[C@@H](C(N)=O)NC1=O)C(=O)N[C@@H](CO)C(=O)N[C@@H](Cc1c[nH]cn1)C(=O)N1CCC[C@H]1C(=O)N[C@@H](C(C)C)C(=O)N2` is reported as greater than 10 µM (Neuronal acetylcholine receptor; alpha4/beta4 (Rattus norvegicus, UniProt P09483+P12392); ion current, antagonist, two-electrode voltage clamp; Xenopus oocytes; rat, added: ACh 300 µM).
With `Fc1ccc2[nH]cc(CNCC3(N4CCCC4)COC3)c2c1` the viability was 97.9% (T98G; single-dose screen; 30 µM, 48 h; reference: DMSO control).
The z-score of `CSCC[C@H](NC(=O)CNC(=O)[C@H](C)NC(=O)[C@@H]1CCCN1C(=O)[C@H](C)NC(=O)[C@H](Cc1ccc(O)cc1)NC(=O)[C@@H](NC(=O)[C@@H](N)Cc1ccccc1)[C@@H](C)O)C(=O)N[C@@H](Cc1ccc(O)cc1)C(=O)O` is reported as -2.03 (HLA class I histocompatibility antigen, A alpha chain allele A*26:03; direction not given).
For `CN(CCc1ccccn1)c1ccc2c(c1)C(=O)c1ccccc1-2`, the inhibition was 33 ± 4.9% (5-hydroxytryptamine receptor 3A (HTR3A, Homo sapiens, UniProt P46098); calcium signal; HEK; 10.3 µM, added: 5-HT 1 µM).
`CC(=O)N[C@@H](C)C(=O)N[C@H](C(=O)N[C@@H](C)C(=O)N[C@@H](CC(=O)O)C(=O)N[C@H](C(=O)N[C@@H](Cc1ccc(OP(=O)(O)O)cc1)C(=O)N[C@@H](C)C(=O)N[C@@H](C)C(N)=O)C(C)C)[C@@H](C)O` gave a kcat/Km of 2.5e+06 M⁻¹ s⁻¹ (PTPN1; substrate, continuous UV; pH 7.4).
For `COc1cc(C2C(C#N)=C(N)Oc3c2c(C)nn3-c2ccc(Cl)cc2)ccc1O` (stereo not drawn), the viability was 68.6% (Vero E6; 6.3 µM).
The Km of `CC[C@H](C)[C@H](NC(=O)[C@H](CCCCN)NC(=O)[C@H](CC(=O)O)NC(=O)[C@H](CCCNC(=N)N)NC(=O)c1ccc(N=Nc2ccc(N(C)C)cc2)cc1)C(=O)N[C@H](C(=O)N[C@H](C(=O)N[C@@H](CC(C)C)C(=O)NCC(=O)N[C@@H](CCCCN)C(=O)N[C@@H](Cc1ccccc1)C(=O)NCC(=O)N[C@@H](CCC(N)=O)C(=O)N[C@@H](CC(=O)O)C(=O)N[C@@H](CCC(=O)NCCNc1cccc2c(S(=O)(=O)O)cccc12)C(N)=O)[C@@H](C)O)[C@@H](C)O` is reported as 21.3 ± 2.4 µM (Genome polyprotein, 2A protease (Enterovirus A71, UniProt Q66478); protease activity, substrate, FRET; enterovirus 71; pH 7.4, 30 °C).
For `N#Cc1c(-c2ccc(Cl)cc2Cl)n(-c2nc(-c3ccc(Cl)cc3)c3c(NC(=O)c4ccccc4)nnc-3[nH]2)[nH]c1=O`, the CC50 was greater than 100 µM (SK-MEL-2; SRB).
`Cc1nn(-c2ccc(Cl)cc2)c2c1C(c1ccc([N+](=O)[O-])cc1)C(C#N)=C(N)O2` (stereo not drawn) has a viability of 62.3% (Vero E6; MTT; 25 µM).
With `CC(C)C[C@H](NC(=O)[C@H](CCCCN)NC(=O)c1ccccc1N)C(=O)N[C@@H](CC(N)=O)C(=O)N[C@@H](CC(C)C)C(=O)N[C@@H](CCC(N)=O)C(=O)N[C@@H](Cc1ccccc1)C(=O)N[C@@H](Cc1ccccc1)C(=O)N[C@@H](C)C(=O)N[C@@H](CO)C(=O)N[C@@H](CCCCN)C(=O)N[C@@H](CCCCNc1ccc([N+](=O)[O-])cc1[N+](=O)[O-])C(=O)O` the Vmax was 1.96 nM/s (Ribosomal processing cysteine protease Prp (prp, Staphylococcus aureus, UniProt Q2FXS9); substrate, fluorogenic peptide cleavage; 2.53% DMSO; pH 7.0, ambient, added: enzyme 21.38 nM as dimer).
`CC(C)[C@H](NC(=O)CNC(=O)[C@H](C)NC(=O)[C@H](Cc1ccccc1)NC(=O)[C@H](CCCNC(=N)N)NC(=O)[C@H](CCCCN)NC(=O)[C@H](Cc1c[nH]cn1)NC(=O)[C@H](CCCNC(=N)N)NC(=O)[C@H](CCCNC(=N)N)NC(=O)[C@H](CO)NC(=O)c1ccccc1N)C(=O)N[C@@H](CCC(N)=O)C(=O)NCCNc1ccc([N+](=O)[O-])cc1[N+](=O)[O-]` has a kcat of 1.7 s⁻¹ (FURIN; substrate; pH 7).
The Km of `C[C@H](NC(=O)[C@H](CCC(N)=O)NC(=O)CCNC(=O)Cc1cc(=O)oc2cc(N)ccc12)C(=O)N[C@@H](CO)C(=O)N[C@H](C(=O)N[C@@H](CC(=O)O)C(=O)N[C@@H](C)C(=O)NCC(=O)N[C@H](C(=O)N[C@@H](C)C(=O)NCC(=O)N[C@@H](CCCCNc1ccc([N+](=O)[O-])cc1[N+](=O)[O-])C(N)=O)[C@@H](C)O)[C@@H](C)O` is reported as 16.2 µM (Caspase-3 (CASP3, Homo sapiens, UniProt P42574); substrate; pH 7.2).
For `C[C@@H](O)[C@H](NC(=O)[C@H](CCC(N)=O)NC(=O)[C@H](CCCNC(=N)N)NC(=O)[C@H](CCCNC(=N)N)NC(=O)[C@H](CCCNC(=N)N)NC(=O)[C@H](CCCNC(=N)N)NC(=O)[C@H](CO)NC(=O)[C@H](CCC(N)=O)NC(=O)c1ccccc1N)C(=O)N1CCC[C@H]1C(=O)N1CCC[C@H]1C(=O)N[C@@H](CCC(N)=O)C(=O)NCCNc1ccc([N+](=O)[O-])cc1[N+](=O)[O-]`, the kcat was 5.5 s⁻¹ (FURIN; substrate; pH 7).
`CC(=O)N[C@@H](CCCNC(=N)N)C(=O)N[C@H](C(=O)N[C@@H](CC(C)C)C(=O)N[C@@H](C)C(=O)N[C@@H](C)C(=O)N[C@@H](Cc1ccc(OP(=O)(O)O)cc1)C(=O)N[C@@H](C)C(=O)N[C@@H](C)C(=O)N[C@@H](C)C(=O)N[C@@H](C)C(N)=O)[C@@H](C)O` gave a kcat/Km of 510000 M⁻¹ s⁻¹ (PTPN1; substrate, continuous UV; pH 7.4).
`CC(C)[C@H](NC(=O)[C@H](Cc1c[nH]cn1)NC(=O)c1ccccc1N)C(=O)N[C@@H](CCCNC(=N)N)C(=O)N[C@@H](CCCCN)C(=O)N[C@@H](CCCNC(=N)N)C(=O)N[C@@H](CCCNC(=N)N)C(=O)N[C@@H](C)C(=O)N[C@@H](CC(=O)O)C(=O)N1CCC[C@H]1C(=O)N[C@@H](CC(=O)O)C(=O)N[C@@H](CCC(N)=O)C(=O)NCCNc1ccc([N+](=O)[O-])cc1[N+](=O)[O-]` has a kcat of 1 s⁻¹ (FURIN; substrate; pH 7).
The z-score of `CC[C@H](C)[C@H](NC(=O)[C@@H](N)CCC(=O)O)C(=O)N[C@@H](CC(N)=O)C(=O)N[C@@H](C)C(=O)N[C@@H](Cc1ccccc1)C(=O)N[C@H](C(=O)N[C@@H](C)C(=O)NCC(=O)N[C@@H](CCSC)C(=O)O)C(C)C` is reported as -2.77 (HLA class I histocompatibility antigen, A alpha chain allele A*26:03; direction not given).
`C[C@H](NC(=O)[C@H](CCCCN)NC(=O)c1ccccc1N)C(=O)N[C@@H](CCCNC(=N)N)C(=O)N[C@@H](CO)C(=O)N[C@@H](CO)C(=O)N[C@@H](C)C(=O)N[C@@H](CCC(N)=O)C(=O)NCCNc1ccc([N+](=O)[O-])cc1[N+](=O)[O-]` gave a Km of 0.29 µM (Metacaspase-2 (MCA2, Trypanosoma brucei brucei, UniProt Q585F3); enzyme activity, substrate, FRET hydrolysis; Trypanosoma brucei; pH 7.4).
`CC(C)[C@H](NC(=O)CNC(=O)[C@H](COP(=O)(O)O)NC(=O)[C@@H](NC(=O)[C@H](CCC(=O)O)NC(=O)[C@H](CC(=O)O)NC(=O)CCNC(=O)Cc1cc(=O)oc2cc(N)ccc12)C(C)C)C(=O)N[C@@H](CCCCNc1ccc([N+](=O)[O-])cc1[N+](=O)[O-])C(=O)N[C@@H](CC(=O)O)C(N)=O` gave a Km of 12.2 µM (Caspase-7 (CASP7, Homo sapiens, UniProt P55210); substrate; pH 7.2).
